Assay results pooled from the literature.
Lines come from different studies, so protocols differ. ± marks the error that the study gave. Square brackets hold non-standard residues; d marks the D form. Where no end group is shown, it is not given here. Ends that are not written are not given here. [ ]: non-standard residue; d: D form.
KDM5A: KDM5A 287-347 (Homo sapiens, UniProt P29375)
B1: ADA D8N (Homo sapiens, UniProt P00813); chain MAQTPAFNKPKVELHVHLDGSIKPETILYYGRRRGIALPANTAEGLLNVIGMDKPLTLPDFLAKFDYYMPAIAGCREAIKRIAYEFVEMKAKEGVVYVEVRYSPHLLANSKVEPIPWNQAEGDLTPDEVVALVGQGLQEGERDFGVKARSILCCMRHQPNWSPKVVELCKKYQQQTVVAIDLAGDETIPGSSLLPGHVQAYQEAVKSGIHRTVHAGEVGSAEVVKEAVDILKTERLGHGYHTLEDQALYNRLRQENMHFEICPWSSYLTGAWKPDTEHAVIRLKNDQANYSLNTDDPLIFKSTLDTDYQMTKRDMGFTEEEFKRLNINAAKSSFLPEDEKRELLDLLYKAYGMPPSASAGQNL
B2: EIF4G2 48-907 (Homo sapiens, UniProt P78344); chain QKWIPARSTRRDDNSAANNSANEKERHDAIFRKVRGILNKLTPEKFDKLCLELLNVGVESKLILKGVILLIVDKALEEPKYSSLYAQLCLRLAEDAPNFDGPAAEGQPGQKQSTTFRRLLISKLQDEFENRTRNVDVYDKRENPLLPEEEEQRAIAKIKMLGNIKFIGELGKLDLIHESILHKCIKTLLEKKKRVQLKDMGEDLECLCQIMRTVGPRLDHERAKSLMDQYFARMCSLMLSKELPARIRFLLQDTVELREHHWVPRKAFLDNGPKTINQIRQDAVKDLGVFIPAPMAQGMRSDFFLEGPFMPPRMKMDRDPLGGLADMFGQMPGSGIGTGPGVIQDRFSPTMGRHRSNQLFNGHGGHIMPPTQSQFGEMGGKFMKSQGLSQLYHNQSQGLLSQLQGQSKDMPPRFSKKGQLNADEISLRPAQSFLMNKNQVPKLQPQITMIPPSAQPPRTQTPPLGQTPQLGLKTNPPLIQEKPAKTSKKPPPSKEELLKLTETVVTEYLNSGNANEAVNGVREMRAPKHFLPEMLSKVIILSLDRSDEDKEKASSLISLLKQEGIATSDNFMQAFLNVLDQCPKLEVDIPLVKSYLAQFAARAIISELVSISELAQPLESGTHFPLFLLCLQQLAKLQDREWLTELFQQSKVNMQKMLPEIDQNKDRMLEILEGKGLSFLFPLLKLEKELLKQIKLDPSPQTIYKWIKDNISPKLHVDKGFVNILMTSFLQYISSEVNPPSDETDSSSAPSKEQLEQEKQLLLSFKPVMQKFLHDHVDLQVSALYALQVHCYNSNFPKGMLLRFFVHFYDMEIIEEEAFLAWKEDITQEFPGKGKALFQVNQWLTWLETAEEEESEEEAD
B3: Ric8b 1-483 A449W (Mus musculus, UniProt Q80XE1); chain MDEERALYIVRAGEAGAIERVLRDYSDKHRATFKFESADEDKRKKLCEGIFKVLVKEVPTTCQVSCLEVLRILSRDKKILVPVTTKENMQILLRLAKLHESDDSLEKVSEFPVIVESLKCLCNIVFNSQMAQQLSLELNLAAKLCNLLRKCKDRKFINDIKCFDLRLLFVLSLLHTDIRSQLRYELQGLPLLTQILESAFSIKWTDEYESAIDHNGPPLSPQETDCAIEALKALFNVTVDSWKVHKESDSHQFRVMAAVLRHCLLIVGPTEDKTEELHSNAVNLLSNVPVSCLDVLICPLTHEETAQEAATLDELPSDKTTEKDTALKNSTMVYNGMNMEAIHVLLNFMEKRIDKGSSYREGLTPVLSLLTECSRAHRNIRKFLKDQVLPPLRDVTNRPEVGSTVRNKLVRLMTHVDLGVKQIAAEFLFVLCKERVDSLLKYTGYGNAWGLLAARGLLAGGRGDNWYSEDEDTDTEEYKNAKP
B4: EAF2 114-260 (Homo sapiens, UniProt Q96CJ1); sequence looked up; chain VEGSSKIQYRKEQQQQQMWNSARTPNLVKHSPSEDKMSPASPIDDIERELKAEASLMDQMSSCDSSSDSKSSSSSSSEDSSSDSEDEDCKSSTSDTGNCVSGHPTMTQYRIPDIDASHNRFRDNSGLLMNTLRNDLQLSESGSDSDD
B5: UGT1A9 (Homo sapiens, UniProt O60656); chain GKLLVVPMDGSHWFTMRSVVEKLILRGHEVVVVMPEVSWQLGRSLNCTVKTYSTSYTLEDLDREFKAFAHAQWKAQVRSIYSLLMGSYNDIFDLFFSNCRSLFKDKKLVEYLKESSFDAVFLDPFDNCGLIVAKYFSLPSVVFARGILCHYLEEGAQCPAPLSYVPRILLGFSDAMTFKERVRNHIMHLEEHLLCHRFFKNALEIASEILQTPVTEYDLYSHTSIWLLRTDFVLDYPKPVMPNMIFIGGINCHQGKPLPMEFEAYINASGEHGIVVFSLGSMVSEIPEKKAMAIADALGKIPQTVLWRYTGTRPSNLANNTILVKWLPQNDLLGHPMTRAFITHAGSHGVYESICNGVPMVMMPLFGDQMDNAKRMETKGAGVTLNVLEMTSEDLENALKAVINDKSYKENIMRLSSLHKDRPVEPLDLAVFWVEFVMRHKGAPHLRPAAHDLTWYQYHSLDVIGFLLAVVLTVAFITFKCCAYGYRKCLGKKGRVKKAHKSKTH
B6: AHSP (UniProt Q9NZD4); chain GSMALLKANKDLISAGLKEFSVLLNQQVFNDPLVSEEDMVTVVEDWMNFYINYYRQQVTGEPQERDKALQELRQELNTLANPFLAKYRDFLKSHELPSHPPPSS

Substance	tested on	test	system	conditions	how to read	measurement	value
EPB41 fragment (Homo sapiens)	SLC9A1 residues 506-575 (Rattus norvegicus)	resonant mirror	–	kinetic analysis	–	koff	0.0095 s⁻¹
PAM18 (Saccharomyces cerevisiae, UniProt Q07914)	SSC1 V459F (Saccharomyces cerevisiae)	ATPase activity, activator	–	single turnover	reference: basal rate, higher = more stimulation	fold stimulation of ATPase	8 fold
ADAR p110 isoform E912A (Homo sapiens)	DICER1 (Homo sapiens, UniProt Q9UPY3)	in vitro cleavage	–	–	reference: Dicer alone, higher = more cleavage	pre-siRNA cleavage	6 fold
[Aib][Aib]IA (Aib = CC(C)(N)C(=O)O)	PC-12	protection from Aβ1–42 toxicity, MTT	–	concentration not given, 6 h, Aβ to peptide ratio 1:5, with: Aβ1–42 2 µM	reference: untreated cells	cell viability	75.4%
SERPINF2 mature, citrullinated arginines (Homo sapiens, UniProt P08697)	PLG plasmin (Homo sapiens, UniProt P00747)	cleavage of citrullinated antiplasmin	–	–	–	kcat/Km	2.5e+07 M⁻¹ s⁻¹
YASPSRRRKLSLNIPI (RASGRF1 D-site peptide (Homo sapiens))	MAPK8, pT183, pY185 (Homo sapiens, UniProt P45983)	kinase activity, inhibitor, competitive kinase inhibition assay	peptide	with: ATP 1 mM	–	IC50	1100 nM
TIMP2 N-terminal domain S4E/V6R/V18M/I35V/N38Q/S68N/V71N/H97R	MMP10 99-263 (Homo sapiens, UniProt P09238)	fluorogenic substrate cleavage, inhibitor, enzyme inhibition assay	–	apparent	–	Ki	446 nM
Smad1 linker peptide, pS206/pS214 (Homo sapiens)	YAP1 WW1+WW2	ITC	–	–	reference: unphosphorylated extended Smad1 peptide, higher = stronger interaction	relative interaction	2.2 fold
ARTKSTARKS (Histone H3.1 2-11 Q5S (Homo sapiens, UniProt P68431); sequence looked up)	KDM5A	competition with labeled peptide, fluorescence polarisation	peptide	with: H3 peptide	–	Ki	1850 nM
Prickle2 (Mus musculus, UniProt Q80Y24)	Vangl2 (Mus musculus, UniProt Q91ZD4)	co-IP	HEK293T	1.0 µg	reference: control, higher = more E-cadherin	E-cadherin coprecipitated	0.28 a.u.
B1 (ADA D8N)	bovine serum albumin (Bos taurus, UniProt P02769)	adenosine deamination	–	pH 7.4	reference: PBS pH 7.4, higher = more activity	relative enzyme activity	1.36 fold
CCL21 (UniProt O00585)	ACKR4 (Homo sapiens, UniProt Q9NPB9)	β-galactosidase activity, agonist, EFC	CHO-CCX-CKR	with: wild-type CXCL12 1 µM	–	pEC50	8.5
Insulin human	–	ELISA	rat, hippocampus	intranasal, 20 µg per nostril, 360 min	–	concentration	11.8 ± 4.5 pg/mg tissue
PTPRZ1 Fc fusion extracellular C, F, S domains	Nrcam (Mus musculus, UniProt Q810U4)	neurite outgrowth	cerebellar cells	with: anti-Nr-CAM Fab' 100 µg/mL	reference: control without Fab', higher = more outgrowth	neurite outgrowth	50%
FLNA (Homo sapiens, UniProt P21333)	ACTA1 F-actin (Oryctolagus cuniculus, UniProt P68135)	co-sedimentation	–	two-site fit, apparent	–	actin per FLNa subunit, high avidity site	46 mol/mol
ARYKRTARKS (Histone H3.1 2-11 T3Y/Q5R (Homo sapiens, UniProt P68431); sequence looked up)	KDM5A	competition with labeled peptide, fluorescence polarisation	peptide	with: H3 peptide	–	Ki	12800 nM
thyrotropin-releasing hormone, pyroGlu, C-terminal amide (Gallus gallus)	protein (Gallus gallus, UniProt A0A4P9IVJ2)	MAPK/ERK signaling, SRE luciferase reporter, agonist	HEK 293	–	–	EC50	2.91 nM
cyp102A1 flavin reductase domain (Bacillus megaterium)	CYP3A4 del3-12 (Homo sapiens, UniProt P08684)	BMR-dependent reduction	nanodiscs	no substrate	–	slow phase rate constant	0.0024 s⁻¹

Substance	tested on	test	system	conditions	how to read	measurement	value
B2 (EIF4G2 48-907)	EIF4A1 (Homo sapiens, UniProt P60842)	fluorescence helicase assay	–	1 µM, with: eIF4B	–	RNA unwinding initial rate	4.5 % per minute
bradykinin mature (UniProt P01042)	BDKRB2 (Homo sapiens, UniProt P30411)	time-lapse	D54-MG-GFP	5 h	reference: control, higher = more migration	distance travelled increase	28.8%
FGF14 fragment, N-terminal adamantanecarbonyl, Glu tert-butyl ester, C-terminal ethyl ester (Homo sapiens)	SCN8A 1767-1912 (Homo sapiens, UniProt Q9UQD0-1)	SPR	–	–	–	koff	0.0122 s⁻¹
Itgam/Itgb2 Mac-1 (Mus musculus)	LL-37 (Homo sapiens)	phagocytosis of latex beads	mouse peritoneal macrophages	–	reference: control beads, higher = more phagocytosis	phagocytosis	5 times
B3 (Ric8b 1-483 A449W)	GNAL 1-381 (Homo sapiens, UniProt P38405)	luminescence	RIC-8B knockout HEK293T	–	reference: wild-type Ric-8B, higher = more folding	sensor folding	36%
H[dS]QGTFTSDYSKYLDECRAQDFVCWLMNTKRNRNNIA-NH2 (oxyntomodulin analog S16E/R17C/Q24C, D-Ser2, C-terminal amide; cysteine pairing not given here; D-Ser2, C-terminal amide)	GCGR (Homo sapiens, UniProt P47871)	CRE luciferase reporter, agonist	peptide, HEK293	–	–	EC50	20 nM
B4 (EAF2 114-260)	VHL (Homo sapiens, UniProt P40337)	pVHL stability after cycloheximide	–	in cells, with: Myc-U19/Eaf2	–	protein half-life	< 4 h
GSN E553K (Homo sapiens)	actin, pyrene label (Oryctolagus cuniculus, UniProt P68135)	F-actin severing, fluorimetric pyrene-actin assay	–	20 °C, without Ca2+, with: GSN 0.25 µM	–	depolymerization rate	3.8 h⁻¹
GGWSHY (THBS1 residues 436-441 W441Y (Homo sapiens))	FN1 intact plasma (Homo sapiens)	competition with coated peptide, radioligand binding	peptide	–	–	IC50	> 300000 nM
B5 (UGT1A9)	Cc1ccc2oc(-c3ccccc3)c(O)c(=O)c2c1	steady-state kinetics	–	pH 7.4, 37 °C	–	Vmax/Km	110000 µL/min/mg
NOTCH2NLB (Homo sapiens, UniProt P0DPK3)	NOTCH2 (Homo sapiens, UniProt Q04721)	pGL3-UAS luciferase, luciferase reporter	U2OS	co-transfection	reference: empty vector, higher = more activation	reporter activity	63%
Ac-DNCQYVYNV-NH2 (N-acetyl, C-amide)	mouse neutrophil elastase	inhibitor	peptide, wild type neutrophil lysate	1.25 mM, 30 min preincubation, pH 8.0, 37 °C, with: MeOSuc-AAPV-pNA 1 mM	–	inhibition	28%
CPEB3 (Homo sapiens, UniProt Q8NE35)	Stat5b (Mus musculus, UniProt P42232)	reporter gene	293T	–	reference: WT Stat5b, higher = more activation	transactivation	2.2 fold
cholecystokinin octapeptide	rat pancreatic acini	–	–	0.03 nM, 15 min, with: 20 µM PKCθ pseudosubstrate inhibitor for 2 h	reference: total	amylase secretion	5.8 ± 0.9%
FGF2 (Homo sapiens, UniProt P09038)	FGFR3 isoform IIIc (unknown, UniProt Q61851)	cell proliferation, MTT	BaF3-FGFR3c	0 to 320 nM, with: chondroitin sulfate E 4.9 µg/mL	–	half-maximal concentration	10.1 nM
B6 (AHSP)	HBA1 apo, mature (Homo sapiens)	CD	–	–	–	denaturation midpoint temperature	53.7 °C
ferredoxin 1 (Magnetococcus marinus)	2-oxoglutarate:ferredoxin oxidoreductase αβ heterodimer (Magnetococcus marinus)	2-oxoglutarate formation	–	electron donor, with: ferredoxin	–	CO2 reduction activity	27.2 min⁻¹

For quick reference, copied from above:
Substance	tested on	test	system	conditions	how to read	measurement	value
Insulin human	–	ELISA	rat, hippocampus	intranasal, 20 µg per nostril, 360 min	–	concentration	11.8 ± 4.5 pg/mg tissue
ferredoxin 1 (Magnetococcus marinus)	2-oxoglutarate:ferredoxin oxidoreductase αβ heterodimer (Magnetococcus marinus)	2-oxoglutarate formation	–	electron donor, with: ferredoxin	–	CO2 reduction activity	27.2 min⁻¹
GSN E553K (Homo sapiens)	actin, pyrene label (Oryctolagus cuniculus, UniProt P68135)	F-actin severing, fluorimetric pyrene-actin assay	–	20 °C, without Ca2+, with: GSN 0.25 µM	–	depolymerization rate	3.8 h⁻¹
